Published values of several laboratories.
A part holds a random share of what one study measured. Substitutions count along the parent as printed.

Set 1
Target: CREB3L3, bZIP domain (human)
Method: DHFR protein complementation
Medium: yeast
Notes: single substitutions, most at no-binding floor
Reference: wild-type JUN-FOS pair
Direction: higher = stronger binding
Starting sequence: JUN, bZIP domain (human); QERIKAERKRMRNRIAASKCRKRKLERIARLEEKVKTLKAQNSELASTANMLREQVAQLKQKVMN; partner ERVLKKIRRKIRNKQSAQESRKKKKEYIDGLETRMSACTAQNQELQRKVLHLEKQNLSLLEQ
Substitution	binding fitness
K34A	-1.5 natural log
V35P	-1.43 natural log
S43F	-1.52 natural log
K39M	-1.25 natural log
Q41H	-1.45 natural log
M51I	-1.65 natural log
M51H	-1.14 natural log
V56T	-1.5 natural log
K34H	-1.42 natural log
K36S	-1.34 natural log
Q41N	-1.55 natural log
K36T	-1.43 natural log
S43C	-1.46 natural log
K34S	-1.5 natural log

Set 2
Target: Prothrombin, mature alpha-thrombin (F2, Homo sapiens, UniProt P00734)
Method: aptamer microarray, sandwich
Molecule type: DNA with 2'F-ANA
Medium: in vitro
Tested at: 200 nM
Notes: whole 15-mer aptamer, many near background
With: Cy3 exosite-II aptamer, 400 nM
Direction: higher = stronger binding
Strand: GGTTGGTGTGGTTGG
Modification	mean fluorescence intensity
2'F-ANA at 2 4 6 7 9 11 14	73.2 a.u.
2'F-ANA at 1 3 4 5 7 8 9 10 11 15	90.5 a.u.
2'F-ANA at 3 7 10 11 12 14 15	386 a.u.
2'F-ANA at 2 3 4 6 7 9 12 14	235 a.u.
2'F-ANA at 1 2 5 6 7 8 9 10 11 12 14 15	62.1 a.u.
2'F-ANA at 1 2 3 4 6 7 8 9 10 11 14	57.9 a.u.
2'F-ANA at 1 2 3 5 7 9 12 14	50.6 a.u.
2'F-ANA at 4 5 8 10 13 15	48.2 a.u.
2'F-ANA at 2 3 6 9 11 12 13 15	718 a.u.
2'F-ANA at 2 3 5 6 7 8 9 10 11 13 14 15	87.8 a.u.
2'F-ANA at 1 4 6 8 9 13 14	57.6 a.u.
2'F-ANA at 3 4 5 7 8 10 12 13 14 15	54.7 a.u.
2'F-ANA at 4 5 9 11	58 a.u.
2'F-ANA at 1 6 8 9 11 12 15	288 a.u.
2'F-ANA at 1 2 3 5 6 8 9 10 12 13 15	48.8 a.u.
2'F-ANA at 3 6 10	606 a.u.
2'F-ANA at 1 2 6 7 14	52 a.u.
2'F-ANA at 4 6 7 9 10 12 13 14	60.1 a.u.
2'F-ANA at 3 4 5 7 8 9 11	92.2 a.u.
2'F-ANA at 2 3 4 8 11 12 13 15	676 a.u.

Set 3
Target: CCNB3, cyclin fold, Cln2 fusion (human)
Method: yeast growth competition, sequencing
Medium: yeast
Notes: weak parent motif
Reference: not given
Direction: higher = stronger binding
Starting sequence: MICAL3 docking peptide (human); LQLRRQLSFSEDS; partner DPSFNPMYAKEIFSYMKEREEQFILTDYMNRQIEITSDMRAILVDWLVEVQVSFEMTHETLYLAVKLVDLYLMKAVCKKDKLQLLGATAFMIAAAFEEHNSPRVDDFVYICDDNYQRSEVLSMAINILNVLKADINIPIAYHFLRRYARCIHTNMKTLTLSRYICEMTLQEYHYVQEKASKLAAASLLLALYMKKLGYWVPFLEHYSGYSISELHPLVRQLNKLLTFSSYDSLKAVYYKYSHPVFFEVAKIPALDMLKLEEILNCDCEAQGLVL
Substitution	normalised enrichment score
E11T	0.305
D12K	0.366
L3S	0.207
F9V	-0.183
R4Q	-0.265
S8K	0.485
R5K	-0.0369
L3H	-0.173
Q2K	0.108
L7T	0.0137
L7Q	-0.0588
R5G	0.212
E11I	-0.169
Q6F	-0.137
L3N	-0.363
L3W	-0.0639

Set 4
Substance: PhoQ, residues 284 288 289 292 302 303 TVTVVA
Method: Sort-seq
Item: YFP reporter
Medium: E. coli
Notes: PhoQ-PhoP variant library
With: 10 µM Mg2+
Reference: high Mg2+ state
Direction: higher = stronger signaling
target	fold induction
PhoP, residues 12 14 15 18 19 QYFSL (Escherichia coli, UniProt P23836)	6.39
PhoP, residues 12 14 15 18 19 NYFRM (Escherichia coli, UniProt P23836)	8.52
PhoP, residues 12 14 15 18 19 TQALL (Escherichia coli, UniProt P23836)	18.2

Some of these lines once more (set 3):
Substitution	normalised enrichment score
R4Q	-0.265
S8K	0.485
R5K	-0.0369
L3H	-0.173
Q2K	0.108
L7T	0.0137
L7Q	-0.0588
